Assay results collected from several papers.
Each line is one published result; not all experiments were run side by side. Values joined by “and” are separate records of one study, mostly repeats; a detail may differ. Numbers after ± are the reported error.
STING1 H232R: Stimulator of interferon genes protein (STING1, Homo sapiens, UniProt Q86WV6, H232R)

Compound	tested on	assay	system	setting	how to read	quantity	result
CC(=S)NCCCC[C@H](NC(=O)OCc1ccccc1)C(=O)N[C@@H](Cc1c[nH]c2ccccc12)C(=O)NC(C)C	Jurkat	cell growth or viability, MTT	–	72 h	–	EC50	65 to 76 µM
O=C(N[C@@H](CCNC(=O)c1ccc([N+](=O)[O-])o1)c1nc2ccccc2[nH]1)c1cc(-c2ccc(F)cc2F)on1	STING1 H232R	reporter gene, inhibitor	THP1-Dual KI-hSTING-R232	24 h, 1 h preincubation, together with: diABZI 500 nM	–	EC50	5.3 µM
N#Cc1cccc(/C=C/C(=O)c2ccc(O)cc2)c1	U-87 MG	item: ZFAND2A	–	concentration not given	reference: untreated	fold change	27.6
O=C(N[C@@H](Cc1ccc(OCCCCC2CCNCC2)cc1)C(=O)O)c1nc2ccccc2o1.O=C(O)C(F)(F)F	platelets	impedance aggregometry	human, diluted whole blood	50 nM, together with: ADP	reference: untreated	ADP-induced aggregation	0.802 and 0.774 and 0.784 and 0.994 and 0.485
C[C@@H]1Cc2c([nH]c3ccccc23)[C@@H](c2c(F)cc(/C=C/C(=O)O)cc2F)N1C12CC(C1)C2	MCF7	RNA-seq, item: SGK3 mRNA	–	1 µM, 24 h, E2-induced gene	reference: DMSO vehicle	log2 fold change	-1.86
O=C(Nc1nnc2c1c(-c1ccc(Cl)cc1)nc1sc(=Cc3ccco3)c(=O)n12)c1ccccc1 (mixture of isomers)	NCI60 cell panel	SRB	–	10 µM	–	mean growth percent	47.9%
Cc1ncsc1-c1ccc(C(C)NC(=O)C2CC(O)CN2C(=O)C(NC(=O)CCCCCCCCCCN2CCCC(Nc3ncc(Cl)c(Nc4ccccc4S(=O)(=O)C(C)C)n3)C2)C(C)(C)C)cc1 (centres unmarked)	22Rv1	RNA-seq, item: ZSCAN16 mRNA	–	concentration not given	reference: DMSO	log2 fold change	-2.16
Cn1c(=O)n(C2CCC(=O)NC2=O)c2ccc(C3CCN(CC(=O)Nc4cccc(CS(=O)(=O)N5CC[C@H](Nc6cccc(-c7sc(C(=O)O)c(OCC(=O)O)c7Cl)c6)CC5(C)C)c4)CC3)cc21 (some centres unmarked)	B16-F10	HTRF, item: phospho-STAT1 Tyr701	–	0.37 µM, together with: IFN-γ	reference: min-max normalised	pSTAT1 level	87.2% and 93.2% and 86.9% and 81.6% and 89.4% and 97.3%
COc1ccccc1-c1ccncc1C(=O)Nc1nnc(OCc2ccc(Cl)cc2)s1	MDA-MB-231	–	–	1.5 µM, single replicate	–	colony count	24 and 33 and 36 and 22
COC(=O)c1cc(NC2=NC(=O)C(=Cc3ccc(C)cc3)S2)ccc1OC(C)=O	MCF7	GC-MS, item: Arachidonic acid	–	1 µM	reference: DMSO	metabolite level	-0.56 fold change
COC1CN([C@H]2CC[C@H]([C@@]3(C)Oc4c(Cl)cc(C(=O)NCc5c(SC)cc(C)[nH]c5=O)c(C)c4O3)CC2)C1	–	RNA-seq, item: PLD2	human, whole blood	dose not given, 24 h	reference: pretreatment baseline	log2 fold change	1.92
O=C(C[Se]C(=O)c1cc2ccccc2o1)Nc1cccc(C(F)(F)F)c1	NCI60 prostate subpanel (PC-3, DU-145)	cell growth, inhibitor	–	five-dose	–	GI50	1.58 µM
CSCC[C@H](NC(=O)[C@H](CCC(N)=O)NC(=O)[C@H](CCCCN)NC(=O)[C@H](CCCNC(=N)N)NC(=O)[C@H](Cc1ccc(O)cc1)NC(=O)[C@H](CCCNC(=N)N)NC(=O)[C@H](CO)NC(=O)[C@H](Cc1ccc(O)cc1)NC(=O)[C@H](CO)NC(=O)[C@H](CC(=O)O)NC(=O)[C@@H](NC(=O)[C@@H](N)Cc1ccccc1)[C@@H](C)O)C(=O)N[C@@H](C)C(=O)N[C@H](C(=O)N[C@@H](CCCCN)C(=O)N[C@@H](CCCCN)C(=O)N[C@@H](Cc1ccc(O)cc1)C(=O)N[C@@H](CC(C)C)C(=O)N[C@@H](C)C(=O)N[C@@H](C)C(=O)N[C@H](C(=O)N[C@@H](CC(C)C)C(=O)NCC(=O)N[C@@H](CCCCN)C(=O)N[C@@H](CCCNC(=N)N)C(=O)N[C@@H](Cc1ccc(O)cc1)C(=O)N[C@@H](CCCCN)C(=O)N[C@@H](CCC(N)=O)C(=O)N[C@@H](CCCCn1cc(C[C@H](NC(=O)CNC(=O)[C@H](CO)NC(=O)[C@H](CCCNC(=N)N)NC(=O)[C@H](CO)NC(=O)[C@H](CC(C)C)NC(=O)[C@H](CC(C)C)NC(=O)CNC(=O)[C@H](C)NC(=O)[C@H](CC(C)C)NC(=O)[C@H](CCCNC(=N)N)NC(=O)[C@H](Cc2c[nH]cn2)NC(=O)[C@@H](NC(=O)[C@@H](N)C(C)C)[C@@H](C)O)C(=O)N[C@H](C(=O)N[C@H](C(=O)N[C@@H](CCCCN)C(=O)N[C@@H](CC(N)=O)C(=O)N[C@@H](CC(N)=O)C(=O)N[C@@H](Cc2ccccc2)C(=O)N[C@H](C(=O)N2CCC[C@H]2C(=O)N[C@H](C(=O)N[C@@H](CC(N)=O)C(=O)N[C@H](C(=O)NCC(=O)N[C@@H](CO)C(=O)N[C@@H](CCCCN)C(=O)N[C@@H](C)C(=O)N[C@@H](Cc2ccccc2)C(N)=O)C(C)C)[C@@H](C)O)C(C)C)C(C)C)C(C)C)nn1)C(=O)N[C@H](C(=O)N[C@@H](CCCCN)C(=O)N[C@@H](CC(N)=O)C(=O)N[C@@H](CCCCN)C(N)=O)C(C)C)C(C)C)C(C)C	transfected COS-7 cells	cAMP accumulation, antagonist	–	together with: PACAP-27	–	A2	2570 nM
Cc1cc(Cl)cc(-c2ccnc3cc(CN4C(=O)C5C(C4=O)C5(C)C)sc23)c1C[C@@H]1CNCCO1 (some centres unmarked)	CHP-212 parental	Annexin V-PI flow cytometry	–	0.3 µM, 48 h	reference: cells	Annexin V-negative PI-positive cells	2.36% and 3.37% and 2.3%
[Cl-].[Cl-].[Ru+2].c1ccc(-c2ccccn2)nc1.c1ccc(-c2ccccn2)nc1.c1ccc2cc3nc4c5cccnc5c5ncccc5c4nc3cc2c1	SK-MEL-28	cell viability	–	dark, normoxia 18.5 % oxygen	–	EC50	135 ± 5 µM
CCN(CC)CC(=O)Nc1cccc(-n2cc(-c3ccc4ccc(-c5cn(-c6cccc(NC(=O)CN(CC)CC)c6)nn5)cc4c3)nn2)c1	RCC4	PCR angiogenesis array, item: SERPINF1	–	5 x IC50, 6 h, normoxia	reference: untreated	fold regulation	-1.28
COc1ccc2c(c1)c(CC(=O)[Se]CC(=O)Nc1cccc(C(F)(F)F)c1)c(C)n2C(=O)c1ccc(Cl)cc1	NCI60 prostate subpanel (PC-3, DU-145)	total growth inhibition, inhibitor	–	five-dose	–	mean TGI	3.54 µM
CNC(=O)C1CCCN(C(=O)C2CC3CCC2N3C(=O)[C@@H]2C[C@@H](O)CN2C(=O)NCc2cccc(Cl)c2F)C1 (mixture of isomers)	Cytochrome P450 2D6 (CYP2D6, Homo sapiens, UniProt P10635)	enzyme activity, inhibitor, time-dependent inhibition	–	16.7 µM, preincubated without NADPH	reference: negative control	remaining activity	102%

Compound	tested on	assay	system	setting	how to read	quantity	result
CCCCCCc1cccc(C(O)CC(CO)NC(=O)CCCCCCCCCCNC(C)=O)c1 (centres unmarked)	HeLa	CERT activity, HPLC-MS/MS lipidomics, item: ceramide 24	–	1 µM, 24 h, not cell-number normalised	–	ceramide level	14800 pmol/sample and 12000 pmol/sample and 16000 pmol/sample
Cc1cccc(-c2cccc(C)n2)n1.Cc1cccc(-c2cccc(C)n2)n1.F[P-](F)(F)(F)(F)F.F[P-](F)(F)(F)(F)F.[Ru+2].c1ccc(-c2nc3c4cccnc4c4ncccc4c3[nH]2)cc1	SK-MEL-28	–	–	normoxia, together with: blue light 453 nm, 100 J/cm2	reference: dark over light EC50	phototoxicity index	7
CC(=O)Oc1ccccc1C(=O)[Se]CC(=O)Nc1cccc(C(F)(F)F)c1	NCI60 breast subpanel mean	cell growth	–	–	–	TGI	12.2 µM
C=CC(=O)N1[C@@H](c2ccc3c(c2)OCO3)c2[nH]c3ccccc3c2C[C@H]1C(=O)NC1CC1	rat DRG neurons	–	–	0.004572 µM, 48 h, together with: vincristine 40 nM	–	mean neuron degeneration	87.8%
Cn1ncc2cc(-c3cncc(Cl)c3N3CCC4(CCNC4=O)CC3)ccc21	LS174T	gene expression, microarray, item: RUNX1 mRNA	–	concentration not given, 24 h	reference: untreated cells	log2 fold change	2.59
O=C(C[Se]C(=O)c1cccnc1Nc1cccc(C(F)(F)F)c1)Nc1cccc(C(F)(F)F)c1	NCI60 prostate subpanel (PC-3, DU-145)	cell growth, inhibitor	–	five-dose	–	GI50	1.88 µM
Cc1cc(NC2CCN(C)CC2)ccc1-c1cc2c(N3CCC[C@H](C(=O)NCc4ccc(OC(F)(F)F)cc4)C3)ncnc2[nH]1	NCI-H3122	cell growth or viability, MTT	–	0.008 µg/mL, 72 h	–	inhibition	39.5%
NC1=C(Cl)C(=O)c2cccc([N+](=O)[O-])c2C1=O	HuCC-A1	MTT	–	–	reference: IC50 MRC-5 over IC50 HuCC-A1	selectivity index	1.08
CO[C@@H]1[C@@H](OC(N)=O)[C@@H](O)[C@H](Oc2ccc3c(O)c(NC(=O)c4ccc(O)c(CC=C(C)C)c4)c(=O)oc3c2C)OC1(C)C	HCT-116 parental	–	–	250 µM, replicate 1	–	colony count	1.55
CNS(=O)(=O)Nc1nccc(Cc2c(C)c3ccc(Oc4ncccc4F)cc3oc2=O)c1F	LS180	cell viability	–	7 days	–	IC50	> 1 µM
N=C(c1ccc([N+](=O)[O-])o1)N1CCC(NC(=O)c2cc(-c3ccc(F)cc3F)on2)(c2nc3ccccc3[nH]2)CC1	STING1 H232R	reporter gene, inhibitor	THP1-Dual KI-hSTING-R232	24 h, 1 h preincubation, together with: diABZI 500 nM	–	EC50	1.5 µM
Cc1cccc(-c2cccc(C)n2)n1.Cc1cccc(-c2cccc(C)n2)n1.F[P-](F)(F)(F)(F)F.F[P-](F)(F)(F)(F)F.[Ru+2].c1ccc2c(c1)Cc1cc(-c3nc4c5cccnc5c5ncccc5c4[nH]3)ccc1-2	SK-MEL-28	–	–	1% O2, together with: green light 523 nm, 100 J/cm2	reference: dark over light EC50	phototoxicity index	1
CC(C)c1ccc(N(C)c2ccc3c(c2)OCC[C@H]3CNc2cnccc2C(=O)O)cc1	TE-5	cell growth or viability, ATP luminescence	–	7 days	–	IC50	0.00847 µM
O=C(N1CCCC1)n1cc(-c2ccc(-c3ccccc3)cc2)nn1	mouse T cells	N-terminal labelling proteomics, item: TMSB4X N-terminal peptides	–	0.001 µM, 6 h	reference: DMSO	SILAC ratio	0.89
COc1cccc(OC)c1-c1cc(C(=O)NC2(C(=O)O)C3CC4CC(C3)CC2C4)nn1-c1ccc(C(=O)N(C)CCOCCOCCN(C)C(=O)[C@H](CCCCNC(=O)[C@H](CC(C)C)NC(=O)C2OC2C(=O)O)NC(=O)CN2CCN(CC(=O)[O-])CCN(CC(=O)[O-])CCN(CC(=O)[O-])CC2)cc1C(C)C.[177Lu+3] (mixture of isomers)	HT-29	SDS-PAGE autoradiography	–	concentration not given, 4 h	reference: radioactive signal	adduct formation	51.7%
O=C(C[Se]C(=O)c1cc2ccccc2s1)Nc1cccc(C(F)(F)F)c1	NCI60 breast subpanel mean	cell growth	–	–	–	TGI	3.97 µM
CN1CCCNC(=O)c2cccc(c2)C(=O)NCCCN(C)CCCNc2cccc3c2C(=O)c2cccc(c2C3=O)NCCC1	SAS	RNA-Seq, item: BAG1 mRNA	–	1 µM, 6 h	reference: untreated cells	log2 fold change	-0.685

Some of these lines once more:
Compound	tested on	assay	system	setting	how to read	quantity	result
Cc1cc(Cl)cc(-c2ccnc3cc(CN4C(=O)C5C(C4=O)C5(C)C)sc23)c1C[C@@H]1CNCCO1 (some centres unmarked)	CHP-212 parental	Annexin V-PI flow cytometry	–	0.3 µM, 48 h	reference: cells	Annexin V-negative PI-positive cells	2.36% and 3.37% and 2.3%
[Cl-].[Cl-].[Ru+2].c1ccc(-c2ccccn2)nc1.c1ccc(-c2ccccn2)nc1.c1ccc2cc3nc4c5cccnc5c5ncccc5c4nc3cc2c1	SK-MEL-28	cell viability	–	dark, normoxia 18.5 % oxygen	–	EC50	135 ± 5 µM
CCN(CC)CC(=O)Nc1cccc(-n2cc(-c3ccc4ccc(-c5cn(-c6cccc(NC(=O)CN(CC)CC)c6)nn5)cc4c3)nn2)c1	RCC4	PCR angiogenesis array, item: SERPINF1	–	5 x IC50, 6 h, normoxia	reference: untreated	fold regulation	-1.28
